Experimental data of several laboratories.
Each line is one published result; not all experiments were run side by side. Values joined by “and” are separate records of one study, mostly repeats; a detail may differ. Numbers after ± are the reported error.

CN1Cc2cc(Cl)ccc2-n2c(nnc2C2CCN(c3cccc([18F])n3)CC2)C1
total volume of distribution (PET two-tissue compartment model; rhesus monkey, male, striatum; intravenous, dose not given, 90 min scan, baseline scan): 1.1 ± 0.31 mL/cm3

CC(C)[C@@H]1NC(=O)CNC(=O)[C@H](CC(N)=O)NC(=O)[C@H](CCCNC(=N)N)NC(=O)[C@H](Cc2ccc(O)cc2)NC(=O)[C@H](C(C)C)NC(=O)[C@@H](NC(=O)[C@@H](NC(=O)[C@H](CC(N)=O)NC(=O)[C@H](Cc2c[nH]c3ccccc23)NC(=O)[C@H](C)NC(=O)[C@H](Cc2ccccc2)NC(=O)CNC(=O)[C@H](CCCCN)NC(=O)[C@H](Cc2ccccc2)NC(=O)[C@H](Cc2ccccc2)NC(=O)[C@H](CCCCN)NC(=O)OCC2c3ccccc3-c3ccccc32)C(C)C)CSSC[C@@H](C(=O)N[C@@H](Cc2c[nH]cn2)C(=O)N[C@@H](CCCNC(=N)N)C(=O)N[C@@H](CCCNC(=N)N)C(=O)N[C@@H](C)C(=O)N[C@@H](CC(N)=O)C(N)=O)NC(=O)[C@H](C(C)C)NC(=O)[C@H](CCCNC(=N)N)NC1=O
plateletcrit (ICR mice, blood; intraductal mammary, 10 mg/kg, day 5): 0.03%

CC[C@H](C)[C@H](NC(=O)[C@H](Cc1ccc(O)cc1)NC(=O)[C@@H](NC(=O)[C@H](CCCNC(=N)N)NC(=O)[C@@H](N)CC(=O)O)C(C)C)C(=O)N[C@@H](Cc1c[nH]cn1)C(=O)N1CCC[C@H]1C(=O)O
toxicity (Sprague-Dawley rat; sc, 10 mg/kg/day, 28 days): not toxic

O=C1NC2(CC2)COc2ncc(F)cc2[C@H]2COCCN2c2ccn3ncc1c3n2
organ-to-body weight ratio (Sprague-Dawley rat, male, spleen; oral, 10 mg/kg/day, 4 weeks, end of treatment): 0.386 ± 0.168%

COc1cnc2cccc(N3CCc4c(cc(Cn5ccnc5)cc4-c4cn(C)nc4C(F)(F)F)C3=O)c2c1
body weight (BALB/c nude mice, MV4-11 xenograft; intraperitoneal, 75 mg/kg, day 31): 22.2 g and 26.2 g and 22 g and 23.7 g and 23.6 g and 23.2 g and 22.4 g and 22.5 g

CC[C@H](C)[C@H](NC(=O)[C@H](CCCCN)NC(=O)CNC(=O)[C@H](CC(C)C)NC(=O)[C@H](Cc1ccccc1)NC(=O)[C@H](CCCCN)NC(=O)[C@H](CO)NC(=O)[C@H](Cc1ccccc1)NC(=O)[C@H](Cc1c[nH]c2ccccc12)NC(=O)[C@H](CCC(N)=O)NC(=O)[C@@H](NC(=O)[C@H](Cc1ccccc1)NC(=O)CCCCCNC(=O)CN1CCN(CC(=O)O)CCN(CC(=O)O)CCN(CC(=O)O)CC1)C(C)C)C(=O)N[C@@H](CCC(=O)O)C(=O)N1CCC[C@H]1C(=O)N[C@@H](CC(=O)O)C(=O)N[C@H](C(=O)N[C@@H](CO)C(=O)N[C@@H](CCC(N)=O)C(=O)N[C@H](C(=O)N[C@@H](CCC(N)=O)C(=O)N[C@@H](CC(=O)O)C(=O)N1CCC[C@H]1C(=O)N[C@@H](CC(N)=O)C(=O)N[C@@H](CC(=O)O)C(=O)N[C@@H](CCC(N)=O)C(=O)N[C@@H](Cc1ccc(O)cc1)C(=O)N[C@@H](CCC(=O)O)C(=O)N1CCC[C@H]1C(=O)N[C@@H](Cc1ccccc1)C(=O)O)C(C)C)C(C)C [copper-64 labelled]
tissue uptake (C57BL/6 mice, stomach; vehicle, intratracheal instillation): 2.98 ± 0.7 %ID/g

CCCCC[C@H]1C(=O)N[C@H](C)C(=O)N(C)[C@@H](CCCCC)C(=O)N(C)[C@H](C)C(=O)N(C)[C@@H](CCCCC)C(=O)N(C)[C@H](C)C(=O)N(C)[C@@H](CCCCC)C(=O)N(C)[C@H](C)C(=O)N1C
log Papp (PAMPA, HPLC-UV; 500 µM, pH 7.4): -5.32 ± 0.04

CC[C@H](C)[C@H](NC(=O)[C@H](C)NC(=O)[C@H](CCCCN)NC(=O)[C@H](CCCCN)NC(=O)[C@@H](N)CCCNC(=N)N)C(=O)N[C@@H](CCCCN)C(=O)N[C@@H](CC(C)C)C(=O)N[C@H](C(=O)N[C@@H](CCCCN)C(=O)N[C@@H](CCCCN)C(=O)N[C@@H](CC(C)C)C(=O)N[C@H](C(=O)N[C@@H](CCCCN)C(=O)N[C@@H](CCCCN)C(=O)N[C@@H](CC(C)C)C(=O)N[C@@H](CCCCN)C(=O)N[C@@H](CCCCN)C(=O)N[C@@H](C)C(=O)N[C@@H](CC(C)C)C(=O)N[C@@H](CCCCN)C(=O)O)C(C)C)C(C)C
hemolysis (human red blood cells; 32 mg/L, 1 h, mean of replicates): 3.94%

CC(C)[C@H](NC(=O)[C@@H](NC(=O)[C@H](CCCNC(=N)N)NC(=O)[C@H](CCCNC(=N)N)NC(=O)[C@H](CCCNC(=N)N)NC(=O)[C@H](CCC(N)=O)NC(=O)[C@H](CCCNC(=N)N)NC(=O)[C@H](CCCNC(=N)N)NC(=O)[C@H](CCCCN)NC(=O)[C@H](CCCCN)NC(=O)[C@H](CCCNC(=N)N)NC(=O)CN)[C@@H](C)O)C(=O)N[C@H](C(=O)N[C@@H](CO)C(=O)N1CCC[C@H]1C(=O)O)[C@@H](C)O
organ weight (ICR mice, female, stomach; intranasal, 5 mg/kg daily, 4 weeks): 0.37 ± 0.036 g

C=Cc1c(C)c2cc3nc(c(CC(=O)[O-])c4[n-]c(cc5nc(cc1[n-]2)C(C)=C5CC)c(C)c4C(=O)[O-])C(CCC(=O)[O-])C3C.[Cu+2].[Na+].[Na+].[Na+] (stereo not shown)
serum albumin (Wistar rat, female; oral, 250 mg/kg daily, 28 days): 1.03 ± 0.15 g/dL

CC(C)=CCC/C(C)=C/CCn1cc(CC(P(=O)(O)O)P(=O)(O)O)nn1
AUC(0-inf) (CD-1 mouse, plasma; intravenous, 0.5 mg/kg, single dose): 1500 ± 119 ng·h/mL

CCn1ccc(-c2cc(-c3cnn(C)c3)cc([C@@H](C)NC(=O)c3cc(OCCN(C)C)ccc3C)c2)n1
MRT(0-inf) (C57BL/6J mice, male, plasma; oral, 50 mg/kg): 4.1 h

C=CC(=O)Nc1cccc(Cn2ncc3cnc(Nc4cnn(CCOC)c4)nc32)c1
serum albumin (Sprague-Dawley rat male, serum; oral, 180 mg/kg, day 28, 28-day subacute toxicity): 2.2 ± 0.58 g/dL

Excerpt of the above:
COc1cnc2cccc(N3CCc4c(cc(Cn5ccnc5)cc4-c4cn(C)nc4C(F)(F)F)C3=O)c2c1
body weight (BALB/c nude mice, MV4-11 xenograft; intraperitoneal, 75 mg/kg, day 31): 22.2 g and 26.2 g and 22 g and 23.7 g and 23.6 g and 23.2 g and 22.4 g and 22.5 g
